Published values pooled from the literature.
Protocols differ between the studies behind these lines. Values joined by “and” are separate records of one study, mostly repeats; a detail may differ. ± gives the spread as reported.

The constipation incidence of `CO[C@H]1C[C@@H]2CC[C@@H](C)[C@@](O)(O2)C(=O)C(=O)N2CCCC[C@H]2C(=O)O[C@H]([C@H](C)C[C@@H]2CC[C@@H](OC(=O)NCCOCCOCCOCCOCCOCCOCCOCCOCCC(=O)N3CCc4cc(Cn5nc(-c6ccc7oc(N)nc7c6)c6c(N)ncnc65)ccc4C3)[C@H](OC)C2)C[C@@H](O)[C@H](C)/C=C(\C)[C@@H](O)[C@@H](OC)C(=O)[C@H](C)C[C@H](C)/C=C/C=C/C=C/1C` is reported as 0% (patients with advanced solid tumours; intravenous, 10 mg weekly, grade 3 or higher).
For `Cc1ccc(NS(=O)(=O)c2cccc(C(=O)NC3CCN(c4ncnc5[nH]cnc45)CC3)c2)cc1`, the viability was 100% (human; 0.01016 µM, 24 (unit not given)).
`CC(C)(O)c1cc(Nc2cc(Oc3cn(C4CC4)nc3C3CCOCC3)ccn2)ccn1` — result for “treatment-related adverse events”: 3% (Nausea; patients with advanced cancer, grade 4 glioma expansion; oral, 50 mg twice daily, grade ≥3, 2 weeks on/2 weeks off schedule).
The STD10 of `COc1c(C)cnc(Cn2cc(C#CCCOP(=O)(O)O)c3c(Cl)nc(N)nc32)c1C` is reported as 10 mg/kg (rat or dog; concentration not given, twice weekly, sensitive species).
`O=C1Nc2cc3[nH]nc(-c4ccncc4)c3cc2CN1Cc1ccccc1`: “patients with rash” 0% (CTCAE v4.03; human, relapsed or refractory advanced solid tumours; intravenous, 7.2 mg/kg, pooled schedules).
The AUC(0-t) of `CN1CCN(S(=O)(=O)c2cc([N+](=O)[O-])ccc2N(CCOS(C)(=O)=O)CCOS(C)(=O)=O)CC1` is reported as 3.25 µM·h (naive female NSG mice, plasma; intraperitoneal, 25 mg/kg).
With `O=C(O)CCC(CP(=O)(O)O)C(=O)O` (centres unmarked) the measured concentration was 7.86 ± 0.1 µg/mL (rat plasma; 8 µg/mL, freeze-thaw cycle 1 at -80 °C).
`Nc1nc2cc(-c3ccc4ncc(C(=O)N5CCOCC5)n4c3)ccc2o1`: “respiratory failure adverse events” 6% (human, advanced solid tumours; concentration not given).
`CC(C)[C@H](O)C(=O)N[C@H]1Cc2ccc3c(c2)[C@]2(C4=C(c5nc(CO)co5)N=C(O4)[C@H](C(C)(C)C)NC1=O)c1cc(F)ccc1N[C@@H]2O3` has an AUC(0-t) of 284 ng·h/mL (NSG mice, brain; intravenous, 10 mg/kg, single dose at MTD, added: paclitaxel 40 mg/kg).
`C[C@@H](NC(=O)N1C(=O)[C@H](Cc2ccnc(N)c2)[C@H]1C(=O)O)C1CCCCC1`: “adverse events, moderate” 2.5% (healthy Chinese adult volunteers; continuous intravenous infusion, dose not given, 5.0 days, CTCAE 5.0, all doses).
For `COc1ccc(-c2[nH]c3c(OP(=O)([O-])[O-])c(OC)ccc3c2C(=O)c2cc(OC)c(OC)c(OC)c2)cc1OC.[Na+].[Na+]`, tolerability read “not toxic” (outcome: not toxic; mouse, BALB/c, 4T1-Luc tumour; intraperitoneal, 20 mg/kg).
`O=S(=O)([O-])C(F)(F)C(F)(F)C(F)(F)C(F)(F)C(F)(F)C(F)(F)C(F)(F)C(F)(F)F.[K+]` — result for tissue concentration: “increased” (LC-ESI-MS/MS; EtOH-fed mice, kidney; dose not given; relative to: pair-fed mice).
For `OCc1cn(Cc2cccc(Cl)c2)c2ccccc12`, “liver toxicity severity score” read 4 (male F344 rat, liver; oral, 150 mg/kg/day, 2 days, scale unremarkable to marked; direction not given).
`O=C(O)CCCOc1ccc(F)cc1-c1cc(-c2ccccc2C(F)(F)F)n(-c2ccccc2)n1` — result for “serum protein fraction”: 15.4 ± 1.6% (measured: β-glb; Crl:CD(SD) rats, male, serum; iv, 25 µg/kg, 14 days).
`COc1cc2c(Oc3ccc4[nH]c(C)cc4c3F)ccnc2cc1OCC1(N)CC1`: “sinus tachycardia incidence” 18.2% (paediatric refractory sarcoma patients; 12 mg).
`NC(=O)[C@H]1CCN(c2ncnc(N)c2F)C[C@@H]1N1CCC[C@@H](Nc2cc(Cl)cc(C(F)(F)F)c2)C1=O`: “grade ≥3 bilirubin increase” 0% (B-cell malignancy patients; oral, 410 mg twice daily, dose).
`N=C(N)NCCC[C@@H](NC(=O)[C@@H](N)Cc1ccccc1)C(=O)N[C@@H](Cc1ccccc1)C(=O)N[C@@H](CCCCN)C(N)=O` — result for “median amount excreted in urine”: 1.43e+06 ng (LC-MS; human; 25 mg, 11.83 h).
The C0 of `Cc1ccccc1C(=O)NN=Cc1ccc(O)c(Br)c1` is reported as 145 ng/mL (C3H/HeN mouse IN model, plasma; intravenous, 0.8 mg/kg).
With `COc1ncccc1-c1cnn2ccc(N3CCN(C(=O)OC(C)C)CC3)nc12` the drug concentration was 760 nM (mouse nerve ligation model, plasma; oral, 3 mg/kg, 30 min after last dose, repeat dosing day 4).
`CN[C@H]1CC[C@@H](c2ccc(Cl)c(Cl)c2)c2ccccc21` has an AUC(0-inf) of 3300 ng·h/mL (CD-1 mouse, male, plasma; intraperitoneal, 30 mg/kg).
Under “treatment-related adverse events”, `CCCCCCCCCCCCCCCC(=O)N[C@@H](CCC(=O)NCCCC[C@H](NC(=O)[C@H](CC(=O)O)NC(=O)[C@H](CO)NC(=O)[C@@H](NC(=O)[C@H](Cc1ccccc1)NC(=O)[C@@H](NC(=O)CNC(=O)[C@H](CCC(N)=O)NC(=O)[C@H](CO)NC(=O)[C@@H](N)Cc1c[nH]cn1)[C@@H](C)O)[C@@H](C)O)C(=O)N[C@@H](CO)C(=O)N[C@@H](CCC(=O)O)C(=O)N[C@@H](Cc1ccc(O)cc1)C(=O)N[C@@H](CC(C)C)C(=O)N[C@@H](CC(=O)O)C(=O)N[C@@H](CO)C(=O)N[C@@H](CCC(=O)O)C(=O)N[C@@H](CCCNC(=N)N)C(=O)N[C@@H](C)C(=O)N[C@@H](CCCNC(=N)N)C(=O)N[C@@H](CC(=O)O)C(=O)N[C@@H](Cc1ccccc1)C(=O)N[C@H](C(=O)N[C@@H](C)C(=O)N[C@@H](Cc1c[nH]c2ccccc12)C(=O)N[C@@H](CC(C)C)C(=O)N[C@@H](CCC(=O)O)C(=O)N[C@@H](C)C(=O)NCC(=O)NCC(=O)O)C(C)C)C(=O)O` is recorded as 0% (measured: Diarrhoea; humans CrCl at least 90 mL/min; subcutaneous, 100 µg single dose).
For `C=CCNc1c(O)cc2c(O)c1C[C@@H](C)C[C@H](OC)[C@H](O)[C@@H](C)/C=C(\C)[C@H](OC(N)=O)[C@@H](OC)/C=C\C=C(/C)C(=O)N2`, “patients with ALP increase” read 33% (unresectable or metastatic sarcoma; intravenous, 150 mg/m^2, grade 3-4 lab change).
`O=C(Nc1ccc2c(c1)B(O)OC2)c1ccc(OCc2ccc(Cl)cc2)cc1` has a donor concentration of 164 ± 16.8 µM (PAMPA; pre-coated trilayer membrane; 200 µM, 5 h, pH 7.4, donor plate, PBS).
`CC(C)CC(=O)OC[C@H]1O[C@@](C#N)(c2ccc3c(N)ncnn23)[C@H](O)[C@@H]1O` gave a remaining compound of 83.6 ± 1.23% (Dogs plasma; 5 µM, 60 min).
`Cn1cc(-c2nc(N[C@@H]3CCCC[C@@H]3N)c(F)c3c2C(=O)NC3)cn1` — result for “hemorrhagic adverse events”: 25% (measured: Melaena; patients with relapsed or refractory AML; oral, 60 mg once daily).
`CC1(C)[C@H](C=C(Cl)Cl)[C@H]1C(=O)OCc1cccc(Oc2ccccc2)c1` — result for “enzyme contribution to clearance”: 0.85% (measured: CYP2C9; human, age 5 years, recombinant human CYP2C9; 0.1 µM).
`Cn1ncc(-c2nc(N[C@H]3CC[C@H](N)CC3)ncc2Cl)c1CC1CC1` — result for “febrile neutropenia incidence”: 11% (phase I dose escalation; human patients; dose not given, any-grade TEAE; relative to: patients).
`NCCCC[C@@H]1NC(=O)[C@@H](Cc2c[nH]c3ccccc23)NC(=O)[C@H](c2ccccc2)NC(=O)[C@@H]2C[C@@H](OC(=O)NCCN)CN2C(=O)[C@H](Cc2ccccc2)NC(=O)[C@H](Cc2ccc(OCc3ccccc3)cc2)NC1=O`: “QTcI change from baseline” -4 ms (healthy volunteers; subcutaneous, 1950 µg twice daily, day 5, 0.25 h).
For `C[C@]1(CO)Cc2ncn(-c3ccc(C#N)c(Cl)c3)c2C(=O)O1`, “drug-related Somnolence incidence” read 0% (healthy humans; 10 mg, fed).
For `O=S(=O)(Nc1ccccc1)c1ccc(NC(=S)Nc2ccccc2)cc1`, “blood cell fraction” read 4.4% (measured: MO%; male mouse, blood; oral, 80 mg/kg daily, 14 days).
For `COc1cccc(Oc2ccccc2NC(=O)CNC(=O)c2cccc3ccccc23)c1`, the serum potassium was 7.6 mmol/L and > 10 mmol/L and 7.9 mmol/L (esterase-deficient SCID mice, male; oral, 15 mg/kg/day, 14 days, toxicity study).
For `CC(C)n1c(C2CCNCC2)nc2c([N+](=O)[O-])c(Br)c(Br)cc21`, “AE of any grade” read 24% (patients with AML; 125 mg, AST increased).
For `CC(C)C[C@H](NC(=O)[C@H](CCCCN)NC(=O)OCC1c2ccccc2-c2ccccc21)C(=O)N[C@H](C(=O)N[C@@H](Cc1ccccc1)C(=O)N[C@@H](Cc1ccccc1)C(=O)N[C@@H](CCCCN)C(=O)NCC(=O)N[C@@H](Cc1ccccc1)C(=O)N[C@@H](C)C(=O)N[C@@H](Cc1c[nH]c2ccccc12)C(=O)N[C@@H](CC(N)=O)C(=O)N[C@H](C(=O)N[C@H]1CSSC[C@@H](C(=O)N[C@@H](Cc2c[nH]cn2)C(=O)N[C@@H](CCCNC(=N)N)C(=O)N[C@@H](CCCNC(=N)N)C(=O)N[C@@H](C)C(=O)N[C@@H](CC(N)=O)C(N)=O)NC(=O)[C@H](C(C)C)NC(=O)[C@H](CCCNC(=N)N)NC(=O)[C@H](C(C)C)NC(=O)CNC(=O)[C@H](CC(N)=O)NC(=O)[C@H](CCCNC(=N)N)NC(=O)[C@H](Cc2ccc(O)cc2)NC(=O)[C@H](C(C)C)NC1=O)C(C)C)C(C)C`, the neutrophils was 20 ± 1% (ICR mice, blood; intraperitoneal, 10 mg/kg, day 5).
The Albumin of `CCc1ccc(CC/C=C/c2ccc3c(c2)C(=O)CC3)cc1` is reported as 33.1 g/L (Sprague-Dawley rat, male; oral, 120 mg/kg/day, 14 days).
For `O=C(Nc1ccccc1)C1CCN(C(=O)Oc2cccnc2)CC1`, “change in Suspicious score” read 0.2 (psychotropic effects VAS; healthy women; 100 mg; relative to: pre-dose baseline, direction not given).
